Experimental data gathered from unrelated publications.
Each numbered part is a random draw from the data of one study; scales do not carry over between parts.

Series 1
Target: Ras GTPase-activating protein-binding protein 1, C-terminal RGG region (G3BP1, Homo sapiens, UniProt Q13283)
Chain of UniProt Q13283 (whole entry, looked up): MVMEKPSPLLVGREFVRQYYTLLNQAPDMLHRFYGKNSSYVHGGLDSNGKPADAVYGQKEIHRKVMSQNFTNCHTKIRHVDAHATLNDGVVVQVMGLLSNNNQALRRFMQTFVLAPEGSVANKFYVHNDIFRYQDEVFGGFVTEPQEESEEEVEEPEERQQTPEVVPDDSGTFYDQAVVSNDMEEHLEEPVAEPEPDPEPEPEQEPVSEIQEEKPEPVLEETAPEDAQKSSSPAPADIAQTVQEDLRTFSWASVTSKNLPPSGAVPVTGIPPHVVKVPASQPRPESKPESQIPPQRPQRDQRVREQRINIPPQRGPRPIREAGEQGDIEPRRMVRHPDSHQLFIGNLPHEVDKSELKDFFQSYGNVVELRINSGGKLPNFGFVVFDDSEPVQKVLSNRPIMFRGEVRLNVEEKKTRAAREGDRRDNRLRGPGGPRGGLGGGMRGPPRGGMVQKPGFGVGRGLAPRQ
Technique: RNA Bind-n-Seq
Molecule type: RNA
Medium: in vitro
Tested at: 1 µM
Setting: whole 134-nt RNA, ends assumed
Together with: 150 mM KCl
Baseline: input library
Direction: higher = stronger binding
Endpoint: log2 enrichment
Shared flanks, not repeated: GGGAGUUCUACAGUCCGACGAUC … UGGAAUUCUCGGGUGUCAAGG
GCAGGAAGUAAAAACAAAUGGAAAUGCUUCGGAUAGUGGCAGGGGUGGGGGUUGGUAAGGAAAGGGUGGGAUGGGAGUGGGUAAAGAGUU: 2.98
AAGUCCUGUGCUACACAUCGUAUGUACCGAAUCGGAAAAGGGAAAAGGGGAAAAGGGAAAGUAUUAUGUUACGCCGUUCGGAUCUGCACU: -1.11
GUCCUGUGCUACACAUCGUAUGUACCGAAUCGGCCCCCCGGCCCCCCGGGCCCCCCGGAAAGUAUUAUGUUACGCCGUUCGGAUCUGCAC: -0.739
CAAGUCCUGUGCUACACAUCGUAUGUACCGAAUCGGGUUUUUUUGGGUGGGUGGGAAAGUAUUAUGUUACGCCGUUCGGAUCUGCACUUC: 0.89
UGGCCCUGGUGGCAUGCGGGGAGGAAGAGGUGGCCUCAUGGAUCGUGGUGGUCCCGGUGGAAUGUUCAGAGGUGGCCGUUGUGGAGACAG: 3.46
UAACUUUAGAGGAGGAUCUGAUGGAUAUGGCAGUGGACGUGCAUUUGGGGAUGGCUAUAAUGGGUAUGGAGGAGGACCUGGAGGUGGCAA: -1.3
UGGCCCUGGUGGCAUGCGGGGAGGAAGAGGUGGCCUAAUGGAUCGUGGUGGUCCCGGUGGAAUGUUCAGAGGUGGCCGUGGUGGAGACAG: 2.4

Series 2
Target: Histone acetyltransferase KAT6A, winged helix 2, GST fusion (KAT6A, Homo sapiens, UniProt Q92794, residues 85-181)
Technique: protein binding microarray
Molecule type: double-stranded DNA, one strand shown
Medium: in vitro
Tested at: not given
Setting: 8-mer, flanks averaged, mean of 2 arrays, mostly near background
Baseline: not given
Direction: higher = stronger binding
Endpoint: E-score
Construct (chain): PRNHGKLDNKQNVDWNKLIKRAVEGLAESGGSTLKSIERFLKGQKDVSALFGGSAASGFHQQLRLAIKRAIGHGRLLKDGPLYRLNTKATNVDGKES
ATTCTTTA: 0.108
CCCTTCCC: 0.105
CTAGAGTC: -0.133
CACGGATG: 0.0405
AGAAAACC: -0.0965
TATAATCA: 0.0599
ATGGAACC: -0.0689
AACTTTAT: 0.00775

Series 3
Target: RNA binding protein fox-1 homolog 2, RRM domain, GST-SBP tag (RBFOX2, Homo sapiens, UniProt O43251-10, residues 100-194)
Technique: RNA Bind-n-Seq
Molecule type: RNA
Medium: in vitro
Tested at: 365 nM
Setting: natural RNA segment, single round, ends assumed
Baseline: no-protein control
Direction: higher = stronger binding
Endpoint: RBNS enrichment (R)
Shared flanks, not repeated: GGGAGUUCUACAGUCCGACGAUC … UGGAAUUCUCGGGUGCCAA
CAUGAUAACGCUACUGUGACGCUCUCACUGGGAAGCUGGGUGGCGAGAACUUUCUGGACGUCGAUGUUAUCUCAAAGGAAAGCUAUGCAUUGCUGCUUCUUUGUUACCUU: 0.421
AGCUAGACCCUGUUCCCUCACCCUGUAUCCUGUCUCCCCUAAUUGACAUUCUAUCAGCCCAACCCUCAUUCUGCAGGGCCACCUGGUGUGUGGAGGUGGCGGGAGGGGUC: 0.368
GUUGUUGUUGUUGUUGUUUUUCCUUAAUUUGAAAUCAUCUUAUUUUUUAAGACAAAUGUGAAAAUGACCAAAUCACACCAAGCAACUAACUCAAAAAUUAGGAUGCAAGA: 0.42
AAGCUCAGUGUUUUAUUUCAGUAAAAAUUAUUUGGUCAUAAAUUUUGGGAAGAACUGAUUUCUUUUUUUAAAUCAAAGUUUUGUAAAUAGAUCUUACUUCUGAAUUUGAA: 0.867
GGCUCAUGCUACUAGUGCUCUGGGCCCAGUGACCAUGCACCUUCACCCCAGGCAGGCCCUGUGUACCCCUCCUCUAUACUCCAGCAUUUAAUCUUGUGGCUGCUUUCUUU: 0.762
AUUACUUGAAGCACUACAGGAGGAAUGCACCACGGCAGCUCUCCGCCAAUUUCUCUCAGAUUUCCACAGAGACUGUUUGAAUGUUUUCAAAACCAAGUAUCACACUUUAA: 0.366
UCCAGCUACCUACAUGUCUUUUCUUGUCAUCCUUAUAGAUCUCUUUGGCUUUCAGAAAGAUACAGUGAUAAUGUGUGUAUGAAUCAGUCACAAUGAAUUUUACUUGAAUA: 5.02
UAUUUAAUUUUUAAGAAGCCUAUUUUACUAGUGUUUUGUAUGAAGAAAAAUACUGCAGAAGUUAAACCUGUGAUGUGUUUUUUUGAGCUGUUUUGUUUUAAGGUAACUAC: 0.689

Mixed results
PhoQ, residues 284 288 289 292 302 303 SLANIV  fold induction (PhoP, residues 12 14 15 18 19 GHCSL (Escherichia coli, UniProt P23836); Sort-seq, item: YFP reporter; E. coli; PhoQ-PhoP variant library, together with: 10 µM Mg2+; baseline: high Mg2+ state, higher = stronger signaling): 17.5

A few entries again (series 1):
UAACUUUAGAGGAGGAUCUGAUGGAUAUGGCAGUGGACGUGCAUUUGGGGAUGGCUAUAAUGGGUAUGGAGGAGGACCUGGAGGUGGCAA: -1.3
AAGUCCUGUGCUACACAUCGUAUGUACCGAAUCGGAAAAGGGAAAAGGGGAAAAGGGAAAGUAUUAUGUUACGCCGUUCGGAUCUGCACU: -1.11
GUCCUGUGCUACACAUCGUAUGUACCGAAUCGGCCCCCCGGCCCCCCGGGCCCCCCGGAAAGUAUUAUGUUACGCCGUUCGGAUCUGCAC: -0.739
